Measurements gathered from unrelated publications.
Parts stem from different laboratories: compare values within a part only.

Block 1
Target: Interferon regulatory factor 5, full length, phosphomimetic (IRF5, Homo sapiens, UniProt Q13568-2, residues 1-514, K96S/S451D/S453D/S456D/S462D)
Method: protein-binding microarray
Form: double-stranded DNA, one strand shown
Matrix: in vitro
Tested at: 250 nM
Setting: 60-bp whole probe
Added: salmon DNA 0.4 mg/ml
Baseline: random background probes
Reading: higher = stronger binding
All sequences stand within: GCCTAGCAC … GTGCTAGGTCTTGATTCGCTTGACGCTGCTG
| Oligonucleotide | log fluorescence [z-score] |
| --- | --- |
| GACGAACTGAATCTCGAGAC | 0.0613 |
| TCAATTTTGCTTTCATTACT | 4.96 |
| GACTGTTTCCTACTGCTGAC | 0.71 |
| TCATGTCTCTGTCCCTGACT | -0.0143 |
| TCACTTTTCAGTCCCCTACT | 1.11 |

Block 2
Target: Histone acetyltransferase KAT6A, both winged helices, GST fusion (KAT6A, Homo sapiens, UniProt Q92794, residues 1-181)
Method: protein binding microarray
Form: double-stranded DNA, one strand shown
Matrix: in vitro
Tested at: not given
Setting: 8-mer, flanks averaged, mean of 2 arrays, mostly near background
Baseline: not given
Reading: higher = stronger binding
Residues (chain): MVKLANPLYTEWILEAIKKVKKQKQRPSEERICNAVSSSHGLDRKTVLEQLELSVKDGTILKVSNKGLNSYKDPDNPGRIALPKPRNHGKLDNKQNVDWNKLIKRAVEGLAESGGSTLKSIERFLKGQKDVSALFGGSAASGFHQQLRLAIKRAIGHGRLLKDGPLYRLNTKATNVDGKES
| Oligonucleotide | E-score |
| --- | --- |
| AACCCGCT | 0.237 |
| GGGCAGCA | -0.112 |
| CTGATTAA | -0.088 |

Block 3
Target: Centromere-binding protein 1, full length, N-terminal tag (CBF1, Saccharomyces cerevisiae, UniProt P17106, residues 1-351)
Chain of UniProt P17106 (whole entry, looked up): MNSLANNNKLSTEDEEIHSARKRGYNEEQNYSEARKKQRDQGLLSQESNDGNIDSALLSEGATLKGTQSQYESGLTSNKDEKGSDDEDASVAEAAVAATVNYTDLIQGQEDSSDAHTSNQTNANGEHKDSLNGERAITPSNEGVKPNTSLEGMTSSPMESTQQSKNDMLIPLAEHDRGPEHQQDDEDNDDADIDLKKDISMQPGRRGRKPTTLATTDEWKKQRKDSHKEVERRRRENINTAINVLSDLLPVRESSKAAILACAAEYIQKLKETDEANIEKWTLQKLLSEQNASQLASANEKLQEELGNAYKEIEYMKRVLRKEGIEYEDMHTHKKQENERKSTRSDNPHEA
Method: protein-binding microarray
Form: double-stranded DNA, one strand shown
Matrix: in vitro
Tested at: 0.8 µM
Setting: whole 60-bp probe, no competitor
Reading: higher = stronger binding
All sequences stand within: … GTCTTGATTCGCTTGACGCTGCTG
| Oligonucleotide | fluorescence intensity [a.u.] |
| --- | --- |
| GAACGAGATAATGAGCATGATGTATAAACAAACTAG | 602 |
| GAACTTGATGGTCTACACGTTGTTTCAAGTGCATAG | 598 |
| CCTAACTACTATAGTCAGACCACATAGCTTCGTACA | 571 |
| CTATACTGCTGCTGTTGTGTGACTTGAAACGCGTTC | 607 |
| GAAGGTATAACATATCTGGTGAGATGACCAATTTAG | 584 |

Further values, each from its own experiment
| Substance | target | assay | system | setting | scale | endpoint | value |
| --- | --- | --- | --- | --- | --- | --- | --- |
| PhoQ, residues 284 288 289 292 302 303 NLMGRA | PhoP, residues 12 14 15 18 19 DLLYY (Escherichia coli, UniProt P23836) | Sort-seq, measured: YFP reporter | E. coli | PhoQ-PhoP variant library, added: 10 µM Mg2+ | baseline: high Mg2+ state, higher = stronger signaling | fold induction | 1.75 |
